Results from different studies.
Parts stem from different laboratories: compare values within a part only. Substitutions count along the parent as printed.

Set 1
Target: CCNB3, cyclin fold, Cln2 fusion (human)
Technique: yeast growth competition, sequencing
Medium: yeast
Setting: weak parent motif
Relative to: not given
Reading: higher = stronger binding
Endpoint: normalised enrichment score
Starting sequence: RBL1 docking peptide (human); GSAKRRLFGEDPP; partner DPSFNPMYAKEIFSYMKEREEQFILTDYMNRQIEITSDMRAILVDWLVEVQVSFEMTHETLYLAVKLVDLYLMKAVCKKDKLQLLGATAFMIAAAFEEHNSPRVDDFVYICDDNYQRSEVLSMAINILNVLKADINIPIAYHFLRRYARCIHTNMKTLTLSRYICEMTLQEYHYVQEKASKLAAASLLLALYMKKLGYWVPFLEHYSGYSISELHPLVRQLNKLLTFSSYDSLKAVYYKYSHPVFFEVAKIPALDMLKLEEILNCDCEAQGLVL
P13F: 0.364
R6I: 1.04
P12M: 0.387
G9Q: 1.01
D11E: 0.478
P12Y: 0.789
R5K F8L: -0.0414
G1M: 0.309
D11T: 0.793
G9I: 0.937
R5I: 0.0162
A3K: 0.252
L7F: -0.0172
S2D: 0.175
G9A: 1.34
D11L: 0.645

Set 2
Target: Sal-like protein 4, full length isoform B (SALL4, Homo sapiens, UniProt Q9UJQ4-2, residues 1-616)
Technique: universal PBM
Molecule type: double-stranded DNA, one strand shown
Medium: in vitro
Tested at: not given
Setting: 8-mer, flanks averaged, mean of replicates
Reading: higher = stronger binding
Endpoint: E-score
ACGTAATG: 0.177
GGAGCCCC: -0.413
GAATGCGC: -0.0875
GACCACAA: -0.0797
AAGACTAA: 0.0568
CGTCACAA: -0.0853
GAATTCGC: -0.204
GACTAAAC: -0.0594
AAGCTTAC: 0.122
ACCGTTGG: -0.254

Set 3
Target: Centromere-binding protein 1, full length, His-tagged (CBF1, Saccharomyces cerevisiae, UniProt P17106, residues 1-351)
Chain of UniProt P17106 (whole entry, looked up): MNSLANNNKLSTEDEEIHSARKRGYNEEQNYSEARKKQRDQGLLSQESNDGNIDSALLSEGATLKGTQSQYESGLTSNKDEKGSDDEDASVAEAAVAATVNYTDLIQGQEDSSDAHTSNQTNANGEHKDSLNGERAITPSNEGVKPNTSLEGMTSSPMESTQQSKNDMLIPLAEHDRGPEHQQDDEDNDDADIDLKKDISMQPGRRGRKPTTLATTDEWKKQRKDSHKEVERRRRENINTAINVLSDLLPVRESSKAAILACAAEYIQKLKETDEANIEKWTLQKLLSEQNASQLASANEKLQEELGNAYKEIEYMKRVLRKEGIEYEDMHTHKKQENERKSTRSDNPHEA
Technique: competition protein-binding microarray
Molecule type: double-stranded DNA, one strand shown
Medium: in vitro
Tested at: 2 µM
Setting: whole 60-bp probe, lowest competitor level
With: Pho4 competitor, 0.05 µM
Reading: higher = stronger binding
Endpoint: fluorescence intensity
Constant ends, left off below: … GTCTTGATTCGCTTGACGCTGCTG
GATTGATATATCGGCCACGTTTGAGGACCAAGTTGC: 83.8 a.u.
TGAGGAGAACGATTGTTCGTGCCAGTGGCAATGGAA: 61.1 a.u.
AAATTACTAAGTTGTCACTCGACTTACCCCGTATGA: 93.3 a.u.
TGCGCAACAACTTGACATGTGGGTGTATGTCTAGAA: 90.9 a.u.
CATTTATATTAAAATAATACCTACTGTTTCATACTT: 89.3 a.u.
CCCGATCCTTCTTACCGCGTGCTTTGTGAAAAGCAA: 113 a.u.
CTAACGAAGGTTTTTCACGTGTCGTACAAGCCAAGT: 803 a.u.
CTTCTGTAAATTTTTCACGTGGGGTGAAGCGCCCCG: 613 a.u.
AAAAAATAAGCTTTTCTCGTGCCGAGAGTGGTGTAC: 126 a.u.
CATACCCAACCTTGCGCTGTGGGTGAAGATATTTGT: 68.4 a.u.
TTGCAGCTGTTGGCGCGCGTGGTGATGCTGACGTTC: 69.8 a.u.
TCTACAAGAGGTACCCACGTATTGCTCCATTGAGAG: 59.7 a.u.
GTAACCAGACAAGTCAGCGTGAGGACAGTTGGATTC: 82.5 a.u.
CGGGGTTAAGTTTGCAAGGTGGGTGGCTTGCAGCAG: 63.6 a.u.
CTTTCCCGATCTTGTATAGTGGGTGTAGCACATTTG: 77.7 a.u.
CATCCCAATAGAATCCACGTGGGTAAAAGCTACGGC: 943 a.u.
CTGTTTTAACATTGGCTCGTGACGGACTAGATCCTC: 343 a.u.
TGGCAAGTCTTGTAGCATGTGCGCTAACATCGTTTA: 123 a.u.
AAATTACTAAGTTGCGTAGTGGGTGACGCCGTATGA: 66.5 a.u.
CCGCCTAGCAAACACCTCGTGCCAGTCATTACCGAC: 180 a.u.
CTTCTGTAAATTTGATGAGTGGGTGGACGCGCCCCG: 68.8 a.u.
TAGAAACAAAGGCTGCATGTGATAGTACACCCTCCA: 267 a.u.
AGGGTCTAGTCTATCAGCCTCCGAAGGAGTTGTATA: 45 a.u.
GTCTTGTCTCATTGGGGTGTGGGTGTCCCCACTTCA: 79.3 a.u.

Set 4
Target: Histone acetyltransferase KAT6A, both winged helices, GST fusion (KAT6A, Homo sapiens, UniProt Q92794, residues 1-181)
Technique: protein binding microarray
Molecule type: double-stranded DNA, one strand shown
Medium: in vitro
Tested at: not given
Setting: 8-mer, flanks averaged, mean of 2 arrays, mostly near background
Relative to: not given
Reading: higher = stronger binding
Endpoint: E-score
Construct (chain): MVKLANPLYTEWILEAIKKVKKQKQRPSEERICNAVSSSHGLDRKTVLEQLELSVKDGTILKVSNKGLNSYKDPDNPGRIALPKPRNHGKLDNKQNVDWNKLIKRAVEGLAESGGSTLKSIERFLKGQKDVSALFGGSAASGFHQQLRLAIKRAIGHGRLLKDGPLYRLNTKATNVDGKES
AGCGGGAT: 0.236
ATTCCTGG: -0.027
AGGAGTTA: -0.192
CCGCCCGG: 0.295
GTTGAATA: -0.0129
ATTCATTA: 0.0512
ATCCCCGA: 0.0572
CGATGAGC: 0.144
CTAGTATA: 0.0402
CGTTGGCA: 0.107
AGGGAAGA: -0.193
AGGGGCAG: -0.28
CCTTGAAC: -0.0183
CTGTCCCA: -0.0997
CCCTAACG: 0.0493

Set 5
Target: RING finger protein unkempt homolog, zinc fingers 1-6, SBP tag (UNK, Homo sapiens, UniProt Q9C0B0, residues 30-357)
Chain of UniProt Q9C0B0 (30-357, looked up): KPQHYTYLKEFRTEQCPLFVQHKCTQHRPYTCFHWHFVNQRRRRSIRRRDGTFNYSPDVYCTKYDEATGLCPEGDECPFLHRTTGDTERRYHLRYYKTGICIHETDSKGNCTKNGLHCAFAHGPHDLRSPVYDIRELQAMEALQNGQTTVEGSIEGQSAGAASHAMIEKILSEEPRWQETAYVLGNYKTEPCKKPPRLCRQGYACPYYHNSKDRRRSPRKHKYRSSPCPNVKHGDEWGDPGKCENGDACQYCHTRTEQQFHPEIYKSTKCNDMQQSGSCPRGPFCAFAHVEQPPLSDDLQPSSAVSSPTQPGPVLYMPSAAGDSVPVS
Technique: RNA Bind-n-Seq
Molecule type: RNA
Medium: in vitro
Tested at: 100 nM
Setting: RNA with constant flanks, vertebrate orthologous sites, ends assumed
Relative to: input RNA pool
Reading: higher = stronger binding
Endpoint: bound/input enrichment
Constant ends, left off below: GGGAGUUCUACAGUCCGACGAUC … CAACAGAGGAUUGAGCAUCA
CUAGUCUUCCACUUAGGGUAAGCCUCAAAUCUAUAGGACUUAUGACAAUUGUAUACCUACCUAGGUUGAGUUUAAUAUUUUUUUAUUGGCCUGUAAAUAGGGAUGACACCUUCUAUAAUA: 0.616 ratio
GCUACAGAGGGAAGAGCUCACGAACUCAAAGGAAAGCUAGUAAAGAGCUUCUAAUAAAGCUAGGAAAGAUAAGGACAAUUUUACAAAUGAGCAAUUAGAAAUAAAAGAAAAAGGAUAUGG: 0.893 ratio
GUUGAGCCAUGACCCCUAUAGGUUAGGUCAUGAUGCUUACAGGUUAGGACAGGACCCUUAUAGAUUAGGCCAUGAUCCCUACAGACUAACUCCUGAUCCCUACAGGAUGUCACCUAGACC: 0.525 ratio
AGCAAUUAGGGUGGGCCAUUCCUCUACAUUUCCCACGAGGAGAAAAGCCCAAAUAGAUGACACAUAUUUCACACAUCUGAUAAUACUACUCUCUUUUUGUUUUCUGUUUUUACGUAUGCG: 0.688 ratio
UUGGACCUCCUGAACUAACUUUCGAGCUGUGGCUGUUUUUGAUAGUGAUUUCAUUUUCUUUAGGACUUUCCCAUUUCCUGCCUUCUCUCCUCCUGUUCCCAAGGCUUGACUUGUGGAUGG: 0.708 ratio
ACAGCUGCAGCACAGGCUGUUUGAGCUUUGGGAAAAUGAGCUUUGCUUUUUAUAUUUAAAUAGGAUACUUUUAUAUGAUGGGUGCUUUGAGUGUGAAUGCAGCAGGCUCUCCAUUUCAGA: 1.2 ratio

Set 6
Target: Eukaryotic initiation factor 4A-I (EIF4A1, Homo sapiens, UniProt P60842, residues 1-406, full length assumed)
Chain of UniProt P60842 (whole entry, looked up): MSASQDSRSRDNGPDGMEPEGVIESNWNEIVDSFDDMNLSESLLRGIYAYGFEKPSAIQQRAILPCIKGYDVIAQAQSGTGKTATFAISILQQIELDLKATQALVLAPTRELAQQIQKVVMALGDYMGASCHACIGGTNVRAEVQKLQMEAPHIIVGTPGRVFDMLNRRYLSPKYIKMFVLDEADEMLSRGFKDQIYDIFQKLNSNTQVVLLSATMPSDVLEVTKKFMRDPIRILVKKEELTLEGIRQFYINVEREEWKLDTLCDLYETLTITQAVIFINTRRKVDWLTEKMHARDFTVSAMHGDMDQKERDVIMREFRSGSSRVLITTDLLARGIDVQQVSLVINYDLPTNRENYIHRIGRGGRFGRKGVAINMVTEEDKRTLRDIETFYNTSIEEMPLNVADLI
Technique: RNA Bind-n-Seq
Molecule type: RNA
Medium: in vitro
Tested at: 90 pmol
Setting: 4-mer, random 30-nt RNA, single round
With: 3 µM DMDA-PatA, 2 mM ADP, 2 mM phosphate
Relative to: input library
Reading: higher = stronger binding
Endpoint: 4-mer enrichment
GCAG: 0.895 fold
CUAC: 0.571 fold
UGAC: 0.718 fold
UAGU: 1.07 fold
ACGA: 0.72 fold
CGAA: 1.12 fold
AAAU: 1.06 fold
GAGG: 1.38 fold
CAUA: 0.765 fold
GCCC: 0.626 fold

Set 7
Target: ABI1, truncated, D143A, DHFR fusion (Arabidopsis thaliana, UniProt P49597)
Technique: DHFR PCA, dose-response
Medium: yeast
Setting: Hill fit, mean, not affinity
With: (+)-ABA, dose series
Reading: lower = more sensitive
Endpoint: ABA EC50
Starting sequence: PYL1, truncated, DHFR fusion (Arabidopsis thaliana, UniProt Q8VZS8); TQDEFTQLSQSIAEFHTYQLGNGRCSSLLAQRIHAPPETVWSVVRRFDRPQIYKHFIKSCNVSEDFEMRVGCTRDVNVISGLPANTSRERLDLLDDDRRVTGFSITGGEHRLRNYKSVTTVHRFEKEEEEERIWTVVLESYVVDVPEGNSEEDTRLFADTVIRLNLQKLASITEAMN
L164T: 0.289 µM
D3T: 3.37 µM
S171K: 0.654 µM
D153A: 89.1 µM
R32S: 3.53 µM
P36H: 2.27 µM
A30M: 1.15 µM
I162K: 364 µM
V137M: 349 µM
M68H: 6.84 µM
K116V: 74.7 µM
N85G: 5.97 µM
E127L: 3.22 µM

Set 8
Target: Prothrombin, mature alpha-thrombin (F2, Homo sapiens, UniProt P00734)
Technique: aptamer microarray, sandwich
Molecule type: DNA with 2'F-ANA
Medium: in vitro
Tested at: 200 nM
Setting: whole 15-mer aptamer, many near background
With: Cy3 exosite-II aptamer, 400 nM
Reading: higher = stronger binding
Endpoint: mean fluorescence intensity
Sequence: GGTTGGTGTGGTTGG
2'F-ANA at 8 9 10 11 13 14 15: 96.6 a.u.
2'F-ANA at 1 6 7 8 10 11 13 14: 50.4 a.u.
2'F-ANA at 4 7 9: 338 a.u.
2'F-ANA at 4 10 12 14 15: 82.6 a.u.
2'F-ANA at 4 7 8 11 12 14 15: 143 a.u.
2'F-ANA at 1 2 3 5 6 7 8 9 13 14 15: 54.4 a.u.
2'F-ANA at 1 7 11 12: 358 a.u.
2'F-ANA at 2 3 4 7 8 9 10 13 14: 201 a.u.
2'F-ANA at 1 3 11 14: 81.5 a.u.
2'F-ANA at 4 5 7 12 15: 146 a.u.
2'F-ANA at 3 5 9 10 11: 54.6 a.u.
2'F-ANA at 1 3 5 7 9 10 11 12 13 14: 49.5 a.u.
2'F-ANA at 2 3 4 5 7 13 15: 60 a.u.
2'F-ANA at 7 9 13 14 15: 192 a.u.
2'F-ANA at 1 3 4 5 8 9 11 12: 115 a.u.
2'F-ANA at 1 5 6 9 12 14 15: 49.9 a.u.

Some of these lines once more (set 1):
D11E: 0.478
A3K: 0.252
G9A: 1.34
P13F: 0.364
S2D: 0.175
D11T: 0.793
R6I: 1.04
G9Q: 1.01
